Results from different studies.
Parts stem from different laboratories: compare values within a part only.

Study 1
Target: Histone acetyltransferase KAT6A, winged helix 1, GST fusion (KAT6A, Homo sapiens, UniProt Q92794, residues 1-85)
Method: protein binding microarray
Molecule type: double-stranded DNA, one strand shown
Medium: in vitro
Tested at: not given
Notes: 8-mer, flanks averaged, mean of 2 arrays, mostly near background
Baseline: not given
Direction: higher = stronger binding
Construct (chain): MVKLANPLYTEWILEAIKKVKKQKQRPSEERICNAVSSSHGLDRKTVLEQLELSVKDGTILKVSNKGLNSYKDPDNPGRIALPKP
For `ACGATCAT`, the E-score was -0.148.
`CGTTAGTC` gave an E-score of -0.0214.
For `ATTGACAG`, the E-score was -0.065.
`CACTTATG` has an E-score of -0.181.
`CCATCGAG` gave an E-score of -0.136.
The E-score of `ACTAATCT` is reported as -0.11.
`ACTCGCCT` gave an E-score of 0.0282.
For `CGTGTAAC`, the E-score was 0.106.
The E-score of `AGGGCCAA` is reported as -0.0953.
The E-score of `GGCTTTAA` is reported as -0.0491.
With `ACAAAAGA` the E-score was -0.0406.
The E-score of `AACGACAT` is reported as -0.127.
With `ATGCCTGG` the E-score was -0.281.
`GTGAGGTA` gave an E-score of -0.11.
With `ATGTCAGA` the E-score was -0.063.
`AGCGCGCT` has an E-score of 0.382.
`ACGTCGTA` has an E-score of 0.015.
The E-score of `GACAGCTC` is reported as -0.0935.
`TTAAAGAA` has an E-score of -0.0921.
With `AGCATCTC` the E-score was -0.173.
`CATGCTAA` has an E-score of -0.17.

Study 2
Target: PABPC1L2, full length, GST fusion (mouse, UniProt A0ABA7IW68)
Method: RNAcompete
Molecule type: RNA
Medium: in vitro
Tested at: 20 nM
Notes: 7-mer, probes averaged, single round
Baseline: mean of 7-mers
Direction: higher = stronger binding
Target sequence (chain): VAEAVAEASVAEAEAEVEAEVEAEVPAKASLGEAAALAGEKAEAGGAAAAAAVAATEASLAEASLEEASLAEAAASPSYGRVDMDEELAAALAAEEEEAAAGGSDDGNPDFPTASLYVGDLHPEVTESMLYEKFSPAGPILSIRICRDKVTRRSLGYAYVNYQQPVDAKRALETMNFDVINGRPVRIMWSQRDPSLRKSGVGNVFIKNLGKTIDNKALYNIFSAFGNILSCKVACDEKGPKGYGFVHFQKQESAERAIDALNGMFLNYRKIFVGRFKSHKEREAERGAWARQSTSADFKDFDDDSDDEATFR
`AGCUGCC` gave a 7-mer Z-score of -0.121.
`AUAAUGU` gave a 7-mer Z-score of -0.106.
`GGUUUGC` gave a 7-mer Z-score of -0.402.
`AACCCGA` gave a 7-mer Z-score of 0.0968.
For `UCUCGAC`, the 7-mer Z-score was -0.262.
`CACUCCU` has a 7-mer Z-score of -0.273.
`CCCCGCU` has a 7-mer Z-score of -0.525.
`CUAAUAC` has a 7-mer Z-score of -0.171.
The 7-mer Z-score of `ACUUAAU` is reported as -0.0609.
For `UAAUAUG`, the 7-mer Z-score was -0.139.
With `UCUCAGG` the 7-mer Z-score was -0.306.
`CCUAGGG` has a 7-mer Z-score of -0.151.
`AACGAGA` has a 7-mer Z-score of 0.294.
The 7-mer Z-score of `GAGGCGC` is reported as -0.0971.
`UCCUCAA` has a 7-mer Z-score of -0.311.
With `UAGCUGC` the 7-mer Z-score was -0.208.
`GAACCUG` gave a 7-mer Z-score of -0.197.
For `GCUGCGU`, the 7-mer Z-score was -0.287.
With `GGACUAC` the 7-mer Z-score was 0.254.
The 7-mer Z-score of `UCCAAAG` is reported as 0.0478.
With `CCCUUUU` the 7-mer Z-score was 0.128.
With `ACGGCGC` the 7-mer Z-score was -0.0482.
With `CCAAGAA` the 7-mer Z-score was 0.309.
`GGAAGUU` has a 7-mer Z-score of -0.175.
For `CAUAGUG`, the 7-mer Z-score was -0.244.

Study 3
Target: Hepatocyte nuclear factor 3-alpha (Foxa1, Mus musculus, UniProt P35582, residues 1-468, full length assumed)
Method: EMSA with sequencing
Molecule type: double-stranded DNA, one strand shown
Medium: in vitro
Tested at: 10 and 20 nM
Notes: whole designed probe, mean of two concentrations, ends assumed
Baseline: negative control set to 0
Direction: higher = stronger binding
Target sequence (chain): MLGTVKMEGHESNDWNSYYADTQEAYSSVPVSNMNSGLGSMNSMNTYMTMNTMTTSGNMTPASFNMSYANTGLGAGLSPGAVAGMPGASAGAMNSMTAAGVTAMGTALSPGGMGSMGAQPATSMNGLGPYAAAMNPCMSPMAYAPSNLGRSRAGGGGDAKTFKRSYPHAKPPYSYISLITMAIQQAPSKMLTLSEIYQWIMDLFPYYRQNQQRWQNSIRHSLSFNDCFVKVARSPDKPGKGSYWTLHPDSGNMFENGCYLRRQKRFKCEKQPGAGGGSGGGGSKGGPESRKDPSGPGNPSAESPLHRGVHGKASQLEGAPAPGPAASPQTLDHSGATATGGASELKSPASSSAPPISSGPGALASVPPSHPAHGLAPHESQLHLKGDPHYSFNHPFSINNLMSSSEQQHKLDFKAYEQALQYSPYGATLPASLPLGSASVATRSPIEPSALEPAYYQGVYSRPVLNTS
For `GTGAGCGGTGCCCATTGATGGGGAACTGAAGGAAATTTTATATTTATGTGTAGTAAACCACTTAATTTTTCAGCCTGGAACAAATATCCTCTTTAATTTAATGAATTGAATTGTTCTTCTTGTTTACATTGATAAATCTCAGTTCAAAGAGAGAACAAGTGTATTACATGGCATTTAAAATTAAAAATTAAAAAGAGTTTTACAAGGAAAGCCAAATTATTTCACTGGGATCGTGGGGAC`, “normalised bound fraction” read 0.363 ratio.
`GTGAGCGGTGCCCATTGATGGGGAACATGTGGGAACTAATTGAGGACCATGTTTACAATGCGTACAAATCATAAATCAATTAGTTCATATTGATTTACAAACAACGTAGAAAAAGTATTTGTTTACATTGATACTGTCCATGTAAACTTTTTTCAATTCAAAAGAAACACATAGTTCTGTCATAAAGTAGATTTTCTATCCCTTTTATTTTCTGAGCTTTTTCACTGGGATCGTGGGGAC` — result for “normalised bound fraction”: 0.331 ratio.
For `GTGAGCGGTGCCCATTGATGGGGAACCTTCTTAGCCCTGGTGCTATTTCTTGGCTTCCACACATTCTGTACAATTGCAGCCCTGACAGCTAATTTAGCTTCACTGTTGGTGAGTTTCTTGTTTGCTTTTGCTGCTGTCCAAAAGATTCTAGGTGCTGAATGACGCCATCTGTATGTTGCTAGAGGCTGAGAGGGGGCTGGGAGGAAGCCTTAAGTCAAGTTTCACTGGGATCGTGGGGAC`, “normalised bound fraction” read 0.346 ratio.
Under “normalised bound fraction”, `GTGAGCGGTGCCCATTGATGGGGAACGTGTGTGCGCGCGCGTGTGTGTGTGTTTTCTTAAGCCGGGCTATTCAAACCCTGCTGCAATTCTCCGGTAAACAATGTTACATGGGGCATAATGCAAATAAACGGATTCAATGATTCATGGTTCGCGCACTTTGCAGCCGGCCCGGTGGAGCAGCCAGTGCCGGATTTCTCCCTTTTTTTGCAGATCTGCAGATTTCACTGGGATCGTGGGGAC` is recorded as 0.433 ratio.
`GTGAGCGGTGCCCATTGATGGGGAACATCTTCCCCCTCTTCCTTGCCCCACCAGCTCACCTTCCCGGGTTGTTTACTTTGAGCAAAGTAAACAAAGCCGGCATTCGTTAACCCTCTTCACGCGCATACTGCTGTTTGCTCTGGATGAATCATGGTCCTTTGGCGACGCCAGGCTCCGGGAGAGCAAAGCACCGTGTCAGGGCCATGATCCGGGGTGGCCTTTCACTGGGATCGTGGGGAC`: “normalised bound fraction” 0.534 ratio.
`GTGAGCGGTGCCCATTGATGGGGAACCAAGACCCCTTGGCCCTCATCATGTTTTCCCAGCATCAAACCTTTAGACGTATTTAATGGCCCAAGGCATTCCAAGAATGAATATATTTGTGTGTACTCTAGCAACCAACCAAAGAGATGGTTAATGTTTCATAAGACTGCCTAGTCACATTGTTGACATCTGAAACATCTTCTAATTTAAGACAGAGTTCAGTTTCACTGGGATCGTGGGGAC` — result for “normalised bound fraction”: 0.13 ratio.
For `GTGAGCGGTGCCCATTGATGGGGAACCTTCCCACAGCCGACCTCCTCCGCCTGTCCCTCCCGCCACCCCGCCTGTCCCCCGCCTTTCCAGCAGCCTCCAAGTGGCAGGCTGGGTGCTGTGTCAATAAGGGTGTGTGCCCTGCCAGGACCACGGGGCGGGTCGGGAACCGGTTACCTGGCGGGCGGGCGAGGCGCACGTCCTGGCTCGTGCCTCACCGCGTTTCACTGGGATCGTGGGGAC`, “normalised bound fraction” read 0.286 ratio.
`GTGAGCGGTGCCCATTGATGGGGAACCACAGATTGCGGCCGTTTTTCAAATATTTGAGGAGTTCTTAGGTGTAGTTGTTCTATTCATTTCCTACTTATGTCCCTTTATTTTATTGCAAAATAAACACAGCTTGGCACTTGACATTTTCCCTGACCCATCTTTTAAACATACATTAGATGTGAGTCATAGGCAATGAACGGAACTCGCATTTTTGCCCACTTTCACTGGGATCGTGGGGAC`: “normalised bound fraction” 0.312 ratio.

Study 4
Target: RNA binding protein fox-1 homolog 2, RRM domain, GST-SBP tag (RBFOX2, Homo sapiens, UniProt O43251-10, residues 100-194)
Method: RNA Bind-n-Seq
Molecule type: RNA
Medium: in vitro
Tested at: 365 nM
Notes: natural RNA segment, single round, ends assumed
Baseline: no-protein control
Direction: higher = stronger binding
Residues (chain): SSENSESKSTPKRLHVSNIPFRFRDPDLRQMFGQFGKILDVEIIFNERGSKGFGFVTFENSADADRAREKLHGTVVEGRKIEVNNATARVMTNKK
Under “RBNS enrichment (R)”, `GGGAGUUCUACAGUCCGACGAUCAUGCAUGCCCUUCAGGGGAAGACUGUGAGUCAAGUUUAAUAAAUAAAAACCUAAUACUAAGCAAUAUGAAGCUGCACUCUGCUUUUAAGUGAGGCCAAGCCAAGUAAGCCUGGAAUUCUCGGGUGCCAA` is recorded as 11.1.
For `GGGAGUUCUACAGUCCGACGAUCCGCCACCAUCAGGCUGCCGCUUCCUAACUUAUUAACCGGGCAGUGCCCGCCAUGCAUCCUUGAUGUUUGCCGCCUGGCGGCUGAGCCCUUAGCCUCGCUGUAGAGACUUCUGGAAUUCUCGGGUGCCAA`, “RBNS enrichment (R)” read 1.39.
`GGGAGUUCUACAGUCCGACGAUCACAUUUUUGUUACUAGUGCCUAGAACAUAGUAGGUGCUCAAUAAAUACACAUGGAGUAAUUGAAUGACUUUCUCUUUUGGCAUCUGUAUGUGCAGAAUACUCAACAAUGUUGGAAUUCUCGGGUGCCAA`: “RBNS enrichment (R)” 0.373.
Under “RBNS enrichment (R)”, `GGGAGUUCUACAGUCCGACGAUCCUUAUUGAUGAAAGAAACCGUCUUUGCGUUACACCCGAGUCUGCCUCUCGGAGCAGGGAGCUCACCUUCCGCGACGUGUUCUGAGGGUCUGCAUCUUAGGGGGGAGGGCUUGGAAUUCUCGGGUGCCAA` is recorded as 0.573.
For `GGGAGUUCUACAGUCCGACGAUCCAGACUUGUUCACUCCAUUCAAUUAUGUCCUGAGCCUUGAAACUGUUUUAUUUAACCAUGGGGUAGGCUGGGGUGAUGUUUCAGUUUUCAAGGGACAGAAGCAAGACAAAUGGAAUUCUCGGGUGCCAA`, “RBNS enrichment (R)” read 0.532.
`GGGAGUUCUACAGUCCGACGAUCAUUUUCCCAGUAUCUCCAGGCCUUCCUUAGUCUGUCCCACCGUGCAUCUGCUUACCUCAUGGCGCUGUUUGUUUCAGAUUUUGAAAGCUCACAGGUGUUUGUUGGAAUCAUGGAAUUCUCGGGUGCCAA`: “RBNS enrichment (R)” 1.35.
`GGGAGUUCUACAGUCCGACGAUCAUUCCAGUGAACAUUUAUUUUGUAUAUAAAAUUUUAAACCUAUUGUGUGAAGCUACCCUCAGGCUAUGUAGAUCAGAUGUAUAAAAAGCACAAAUGAAUAUCUCAAUUACUGGAAUUCUCGGGUGCCAA`: “RBNS enrichment (R)” 0.798.
Under “RBNS enrichment (R)”, `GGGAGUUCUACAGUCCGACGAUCUGUUCAUAUCCCACGCCUGGGCUCUUGCCAGCAGUGGAGUUACUGUAGAGGGAUGUCCCAAGCUUGUUUUCCAAUCAGUGUUAAGCUGUUUGAAACUCUCCUGUGUCUGUUGGAAUUCUCGGGUGCCAA` is recorded as 0.326.
`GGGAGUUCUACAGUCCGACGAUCCAGCAGGUUCUAGUGCCUUGACCUGGGGUAGGACCGAGUGAAGGAGGAAGAGGGUAAAAGGGCACAGACUUCCCCAGCUCUGCCCUAAAUAAAAUAACAAUGCUGAUUCAUGGAAUUCUCGGGUGCCAA`: “RBNS enrichment (R)” 0.939.
`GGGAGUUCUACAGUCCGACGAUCUUUUCCUUUAUGAAGAAAAAAUAAAAUAGUCACAUUUUAAUACUACUCUAGUUAGGACAGACUUGUGCUUUUAUCCUGACUAAAAAGUUAAAUAUUUAAGUCACAUACAUUGGAAUUCUCGGGUGCCAA`: “RBNS enrichment (R)” 0.453.
`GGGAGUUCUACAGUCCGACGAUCUUUUGUUUUUUUAAAGAAAAAGAAAAAUGAGAAGAAAAAAAUAAAAGCUCCAGCGUCUUUCUUAUAAAUAGCCCUUUAUUGCGAUAUUUUCCUCCUUCUGGACAACCGCGUGGAAUUCUCGGGUGCCAA`: “RBNS enrichment (R)” 0.581.
`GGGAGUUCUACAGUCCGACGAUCCCUUUUUAGCAAGUAAACCUUGAACUUGGUCAGUGUGGAUAUUUCUGCUAGGCUGACGACUAAGCUGCUGGCCCUGCAGAGGGUCCAGUGUACACUCCACUCUGCUACAGUGGAAUUCUCGGGUGCCAA`: “RBNS enrichment (R)” 0.331.
